Published values gathered from unrelated publications.
Every numbered part comes from another study and shows a few of its results, in no order. Positions count from the first letter of the parent shown.

Sample 1
Target: RNA binding protein fox-1 homolog 2, RRM domain, GST-SBP tag (RBFOX2, Homo sapiens, UniProt O43251-10, residues 100-194)
Method: RNA Bind-n-Seq
Form: RNA
Medium: in vitro
Concentration: 365 nM
Notes: natural RNA segment, single round, ends assumed
Baseline: no-protein control
Reading: higher = stronger binding
Residues (chain): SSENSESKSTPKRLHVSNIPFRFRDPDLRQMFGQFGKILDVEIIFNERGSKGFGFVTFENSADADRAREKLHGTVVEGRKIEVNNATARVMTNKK
Sequence | RBNS enrichment (R)
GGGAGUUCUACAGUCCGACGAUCCUGGGGCAAGAGGGCUAGAUUUCCUCAUUUUGUUAUGAGACUAGAUUGGUACCAGUAGAUCAGCUGCCUAGCGAGGGCAGGUUUCUUCUUUGCAUCUGUGUGGCUUGCUUUGGAAUUCUCGGGUGCCAA | 2.14
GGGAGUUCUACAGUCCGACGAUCUUAUACAGAGAAACCCUGUCUUGAAAGAGCCAAAAAAAAAAAAAAAAAAUACAAGCCAGGAUUCUGCUCCCAAACCUUCAGGACAAUGGGUAGUCCCCAUGGGACCUUAAUGGAAUUCUCGGGUGCCAA | 0.57
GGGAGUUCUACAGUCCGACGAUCCCCCACUUUAGGGUUCUCAAAUACUUUGGACAUCUCUUUCCUUAGAGCCAGGUAGAUGUCUUACAGGUGAACUCGAUGAUGUGGAAAAGAACAAAAAAAGGGAGGUGAGGUGGAAUUCUCGGGUGCCAA | 0.503
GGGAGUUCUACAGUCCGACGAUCUGAAUCAUAAAAUGGGGACAUAUCAUCAAAUCCAAAGUGGUAACAGUGCUAAAUAAGCAUGUAUGAAAUUGAAUGGUUGUGAUGGCUGGUGGGCGGGGGCAAAGAGCCUAUGGAAUUCUCGGGUGCCAA | 1.48
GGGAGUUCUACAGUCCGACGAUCGGAGGCAGCAAGCAAGGACAUCCUCCAGUGGUUUCCUGGAGCCACCGGCUCACUGUCUGCAGCACCUUCUCUUUCUUUCUCAUGCAUUUCAAAGCCAGCUAUCUCCUGCAUGGAAUUCUCGGGUGCCAA | 1.31
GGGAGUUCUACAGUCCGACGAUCCCCAAGCCCUAACAGGCCUUCACUCUCUUGAUAGUCUUUCCUUUACAGUCAAGGACUACGUUAAAGGUCUCUGGAGAGAGUAUAAAGAGAUUAUUUUUCAUCGUUUUUAAUGGAAUUCUCGGGUGCCAA | 0.326
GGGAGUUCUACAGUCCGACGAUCCAGGCACAGGAUGCUGAAAGCUAUGUUACUAUUCUUAGUUUGUAAAUUGUCCUUUUGAUACCAUCAUCUUGUUUUCUUUUUGUAGGUAUAAAUAAAAACACUGUUGACAAUGGAAUUCUCGGGUGCCAA | 0.327
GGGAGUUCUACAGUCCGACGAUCGGAUGGAAAUCUGCCUUUCGUGGGACCAAACAGGACUCCUUGGACGAUUAGUUCAGGUUGGGUUUGGUUUUCUUCUUAAAGAGUUUAGUUUUCCUCUCCAGAGGGAUCAGUGGAAUUCUCGGGUGCCAA | 0.366

Sample 2
Target: RING finger protein unkempt homolog, zinc fingers 1-6, GST-SBP tag (UNK, Homo sapiens, UniProt Q9C0B0, residues 30-357)
Method: RNA Bind-n-Seq
Form: RNA
Medium: in vitro
Concentration: not given
Notes: RNA with constant flanks, human-mouse chimeric sites, ends assumed
Baseline: input RNA pool
Reading: higher = stronger binding
Target sequence (chain): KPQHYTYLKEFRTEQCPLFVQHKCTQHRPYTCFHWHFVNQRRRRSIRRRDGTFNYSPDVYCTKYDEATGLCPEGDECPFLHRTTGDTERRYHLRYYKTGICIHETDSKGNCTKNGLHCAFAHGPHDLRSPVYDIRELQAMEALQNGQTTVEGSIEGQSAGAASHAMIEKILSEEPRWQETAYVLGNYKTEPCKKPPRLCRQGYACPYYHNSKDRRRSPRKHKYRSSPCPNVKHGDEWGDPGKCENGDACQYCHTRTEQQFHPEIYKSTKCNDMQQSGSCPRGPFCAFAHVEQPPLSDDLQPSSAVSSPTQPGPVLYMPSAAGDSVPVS
Sequence | bound/input enrichment [ratio]
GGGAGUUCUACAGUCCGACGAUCCAGCGCCGAGGCCGCGGGUGCCCGCCGGGCCUCCCCAGCAGCAGCCAUGGGCAUCAAGUUUUUAGAAGUUAUCAAACCAUUCUGUGCAGUUCUACCAGAAAUUCAGAAACCGGAAAGGAACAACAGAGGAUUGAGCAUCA | 0.835
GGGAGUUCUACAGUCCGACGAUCUUAAUCCCCUUUACUGCUCCACCACUGCUCAUGGUAAUAACAAAGUCUUAUAUUCCCGUCCUAGCUUUCACUCAGAUGGCUUAUGGAGCCGGUUUCCUAGCUUUCUUGGGAGGGAUCAGACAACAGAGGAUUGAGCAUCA | 0.339
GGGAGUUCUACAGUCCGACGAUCGGCUGCUGGUGACUGUCCUGGAGUGGCUGGAGUUCCCCCGGAACCUGGGCCAGACUAAUUAUAGAAAAUGCCAAGUAGGAAGUUUGUUGAGGGUGAAGUGGUCAGAGGCCGAUGGCCUGGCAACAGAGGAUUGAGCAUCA | 3.33
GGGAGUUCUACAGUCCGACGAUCCCAAGUGAUUCAUCCCAAGGACAGGCCACCCCAUUUGAUGCCUGGACUGAUGACAGUAUGGAAGGGCCUAGUCAAAAUUUUGAAGCUGAGUCAAUUCAGGAUGCCAUGAGUAUGGAAGAGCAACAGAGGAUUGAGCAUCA | 0.218
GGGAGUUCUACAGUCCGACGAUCCACACACUCUUCUGUGGGACCCUCAUCUUGCAGGCCCGGGCCUAUGUGGGACCGCACGUCCUGGCAGUGGUGACCCGCACAGGGUUCUGCACGGCAAAAGGGGGCCUGGUGAGCUCCAUCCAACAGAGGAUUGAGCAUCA | 0.0502
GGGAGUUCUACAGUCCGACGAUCACCUCCCCCUCCCGCCUCACCCCACCCAAGAAAGAAAGAAAGUUUUUGGCGUUUCUUUUCCUUCCCCAUACAAAGUGAUUACAGUUUCCCCCGCAAGGGUCUAUCGAAGGGCUUGACGGACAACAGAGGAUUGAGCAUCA | 0.642
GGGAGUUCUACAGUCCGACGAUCGACAGUGAAGGCCCACUGUGUGAAUUGCUUUUUUUCUUCCUGACUGCAAUCUUCCAGGCAAUAGCUGAAGAAGAGGAGGAAGUAGCCAAAGAGCAACUAACUGAUGCUGACACCAAAGAUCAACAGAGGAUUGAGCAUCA | 0.0647
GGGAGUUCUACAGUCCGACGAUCGCUGAAAAUGAAGAAGAGGCAGCUGAUGUCUGGUACAACCUGGGGCAUGUAGCUGUGGGAAUCGGAGAUACAAACUUGGCCCACCAAUGCUUCAGGCUGGCCCUGGUCAACAACAACCACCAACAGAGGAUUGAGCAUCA | 0.154

Sample 3
Target: ABI1, truncated, D143A, DHFR fusion (Arabidopsis thaliana)
Method: DHFR PCA, deep sequencing
Medium: yeast
Notes: methotrexate growth selection, single substitutions
Added: (+)-ABA 58 µM
Baseline: wild-type fitted maximum
Reading: higher = stronger binding
Parent: PYL1, truncated, DHFR fusion (Arabidopsis thaliana); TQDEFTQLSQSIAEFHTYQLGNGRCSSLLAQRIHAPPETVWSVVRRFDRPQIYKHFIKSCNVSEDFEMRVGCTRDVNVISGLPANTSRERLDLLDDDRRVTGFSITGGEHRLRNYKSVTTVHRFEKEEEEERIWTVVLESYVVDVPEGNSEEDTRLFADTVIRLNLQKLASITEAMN
Variant | relative binding score
F124V | 94.4%
L164A | 89%
E89H | 11%
G148D | 74.3%
T1E | 89.1%
C60D | 8.03%
L166E | -7.7%

Mixed results
Molecule | target | test | system | conditions | how to read | quantity | value
PhoQ, residues 284 288 289 292 302 303 SIHMAM | PhoP, residues 12 14 15 18 19 LHATL (Escherichia coli, UniProt P23836) | Sort-seq, item: YFP reporter | E. coli | PhoQ-PhoP variant library, added: 10 µM Mg2+ | baseline: high Mg2+ state, higher = stronger signaling | fold induction | 0.651

A few entries again (sample 2):
Sequence | bound/input enrichment [ratio]
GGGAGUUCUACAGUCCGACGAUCCCAAGUGAUUCAUCCCAAGGACAGGCCACCCCAUUUGAUGCCUGGACUGAUGACAGUAUGGAAGGGCCUAGUCAAAAUUUUGAAGCUGAGUCAAUUCAGGAUGCCAUGAGUAUGGAAGAGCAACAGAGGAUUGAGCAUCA | 0.218
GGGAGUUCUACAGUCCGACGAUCCACACACUCUUCUGUGGGACCCUCAUCUUGCAGGCCCGGGCCUAUGUGGGACCGCACGUCCUGGCAGUGGUGACCCGCACAGGGUUCUGCACGGCAAAAGGGGGCCUGGUGAGCUCCAUCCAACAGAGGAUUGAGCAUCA | 0.0502
